Results pooled from the literature.
A part holds a random share of what one study measured. Positions count from the first letter of the parent shown.

Study 1
Target: inorganic phosphate, free oxyanion
Method: microfluidic competitive inhibition
Medium: in vitro, cell-free expressed
Concentration: not given
Notes: derived from inhibition constants, unchanged parent 615000 nM
Reading: lower = stronger binding
Quantity: phosphate dissociation constant
Starting sequence: PafA, mature enzyme, eGFP fusion (Elizabethkingia meningoseptica, UniProt Q9KJX5); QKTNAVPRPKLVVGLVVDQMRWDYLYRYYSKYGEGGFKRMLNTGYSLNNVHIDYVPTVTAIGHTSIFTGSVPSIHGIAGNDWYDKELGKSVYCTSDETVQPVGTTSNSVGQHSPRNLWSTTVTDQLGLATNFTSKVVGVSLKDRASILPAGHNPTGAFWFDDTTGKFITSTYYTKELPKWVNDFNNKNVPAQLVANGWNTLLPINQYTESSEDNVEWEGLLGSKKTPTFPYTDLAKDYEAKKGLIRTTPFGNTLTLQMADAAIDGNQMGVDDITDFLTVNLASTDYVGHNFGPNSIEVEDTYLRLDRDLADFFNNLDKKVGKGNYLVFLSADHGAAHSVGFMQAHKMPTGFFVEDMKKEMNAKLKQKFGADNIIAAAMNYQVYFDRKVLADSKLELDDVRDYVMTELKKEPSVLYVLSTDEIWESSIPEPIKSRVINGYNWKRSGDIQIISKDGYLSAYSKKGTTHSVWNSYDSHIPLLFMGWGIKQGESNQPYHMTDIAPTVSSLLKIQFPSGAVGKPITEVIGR
V399G: 485 µM
V382G: 545 µM
G44A: 592 µM
D498V: 430 µM
G369A: 632 µM
L256G: 383 µM

Study 2
Target: Sal-like protein 4, full length isoform A (SALL4, Homo sapiens, UniProt Q9UJQ4, residues 1-1053)
Sequence of UniProt Q9UJQ4 (whole entry, looked up): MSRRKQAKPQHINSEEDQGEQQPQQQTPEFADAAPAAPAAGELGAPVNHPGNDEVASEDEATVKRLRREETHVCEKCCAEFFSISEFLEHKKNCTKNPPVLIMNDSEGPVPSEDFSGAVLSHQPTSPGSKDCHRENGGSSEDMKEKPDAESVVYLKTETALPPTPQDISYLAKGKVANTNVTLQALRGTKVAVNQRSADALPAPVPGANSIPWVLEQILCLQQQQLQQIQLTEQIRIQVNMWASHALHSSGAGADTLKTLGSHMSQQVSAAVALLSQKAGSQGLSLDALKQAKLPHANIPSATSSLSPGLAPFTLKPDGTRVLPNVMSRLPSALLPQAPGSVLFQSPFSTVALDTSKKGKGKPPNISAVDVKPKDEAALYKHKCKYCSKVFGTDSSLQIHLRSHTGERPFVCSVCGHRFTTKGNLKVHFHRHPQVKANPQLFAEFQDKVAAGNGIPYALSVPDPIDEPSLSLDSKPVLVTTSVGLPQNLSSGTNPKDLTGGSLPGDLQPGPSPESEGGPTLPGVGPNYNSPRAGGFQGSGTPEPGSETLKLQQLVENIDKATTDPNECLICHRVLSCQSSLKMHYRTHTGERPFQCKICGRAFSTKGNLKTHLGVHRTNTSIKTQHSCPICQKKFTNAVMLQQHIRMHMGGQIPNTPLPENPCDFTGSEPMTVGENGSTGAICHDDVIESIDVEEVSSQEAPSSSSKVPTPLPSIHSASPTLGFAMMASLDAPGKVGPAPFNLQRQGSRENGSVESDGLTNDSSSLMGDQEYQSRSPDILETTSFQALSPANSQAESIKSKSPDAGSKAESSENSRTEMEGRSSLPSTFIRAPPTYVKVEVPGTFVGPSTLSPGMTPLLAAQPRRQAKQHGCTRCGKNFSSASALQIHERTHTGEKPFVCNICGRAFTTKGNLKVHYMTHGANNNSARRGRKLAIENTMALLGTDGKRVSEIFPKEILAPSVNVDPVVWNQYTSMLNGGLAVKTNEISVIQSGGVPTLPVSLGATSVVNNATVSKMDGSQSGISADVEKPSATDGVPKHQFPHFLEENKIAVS
Method: universal PBM
Molecule type: double-stranded DNA, one strand shown
Medium: in vitro
Concentration: 600 nM
Notes: 8-mer, flanks averaged, mean of replicates
Reading: higher = stronger binding
Quantity: E-score
CGCCCACC: -0.322
CTGGCCCC: -0.427
AAGACATT: 0.111
CGGTCAGC: -0.211
CAATCCTC: -0.018
CAACACGG: -0.163
CTTCCGGC: -0.179
ACTCTAAC: 0.0381

Study 3
Target: POU, POU domain (Salpingoeca helianthica)
Method: Spec-seq
Molecule type: double-stranded DNA, one strand shown
Medium: in vitro
Concentration: not given
Notes: whole probe, mean of replicates
Baseline: not given
Reading: lower = stronger binding
Quantity: relative binding energy
All sequences stand within: GAGTCGTCTCGTCAGCAC … CCGTAGAGCACTCAGGTC
Construct (chain): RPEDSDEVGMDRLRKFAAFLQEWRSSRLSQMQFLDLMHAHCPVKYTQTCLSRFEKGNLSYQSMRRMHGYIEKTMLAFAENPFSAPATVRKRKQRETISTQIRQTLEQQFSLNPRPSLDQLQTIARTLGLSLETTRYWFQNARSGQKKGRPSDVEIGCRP
ATGTCGAT: 1.29 ln ratio
ACTTTAAT: 0.242 ln ratio
ATTCCTAT: 1.11 ln ratio
AGCTTAAT: 0.539 ln ratio
CTTCTAAT: 0.473 ln ratio
ATCAACAT: 1.16 ln ratio
ATGCACTG: 1.42 ln ratio
ATGCCGAG: 2.23 ln ratio

Study 4
Target: CCND2, cyclin fold, Cln2 fusion (human)
Method: yeast growth competition, sequencing
Medium: yeast
Notes: weak parent motif
Baseline: not given
Reading: higher = stronger binding
Quantity: normalised enrichment score
Starting sequence: viral docking peptide; KGVKRKLFAEDSS
G2I: 0.297
K6I: 0.203
S12D: 0.285
R5I: -0.0567
L7F: 0.255
R5P: 0.114
L7V: 0.0618
K4L: 0.0653
A9R: 0.646
E10W: -0.313
F8G: 0.278
S12L: 0.0953
F8N: 0.106
G2S: -0.0976
G2A: -0.106

Repeated from above (study 2):
ACTCTAAC: 0.0381
CTTCCGGC: -0.179
CGCCCACC: -0.322
